Published values pooled from the literature.
A part holds a random share of what one study measured. Changes are numbered by the printed parent chain.

Sample 1
Target: RING finger protein unkempt homolog, zinc fingers 1-6, GST-SBP tag (UNK, Homo sapiens, UniProt Q9C0B0, residues 30-357)
Technique: RNA Bind-n-Seq
Form: RNA
Medium: in vitro
Tested at: not given
Notes: RNA with constant flanks, human and mouse sites, ends assumed
Baseline: input RNA pool
Reading: higher = stronger binding
Constant ends, left off below: GGGAGUUCUACAGUCCGACGAUC … CAACAGAGGAUUGAGCAUCA
Target sequence (chain): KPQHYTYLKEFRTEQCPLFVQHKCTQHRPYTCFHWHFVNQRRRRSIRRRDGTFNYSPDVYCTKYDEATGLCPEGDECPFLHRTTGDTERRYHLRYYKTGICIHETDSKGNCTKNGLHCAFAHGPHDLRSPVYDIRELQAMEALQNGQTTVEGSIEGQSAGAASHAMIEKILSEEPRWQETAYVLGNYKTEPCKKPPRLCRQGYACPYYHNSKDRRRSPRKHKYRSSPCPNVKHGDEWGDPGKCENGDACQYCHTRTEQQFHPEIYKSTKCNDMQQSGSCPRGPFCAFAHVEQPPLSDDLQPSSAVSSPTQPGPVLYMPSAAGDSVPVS
Sequence | bound/input enrichment [ratio]
CAGAACCGAGAGGGCCUGAGGGCCCUACAGAAGGACCUGAGUGUCUCUGAAGAUGUGAUGGUUUGCUUUGGGAACAUGUUCAUCAAAAUGCCUCACCCUAAGACGAAGGAAAUGAUCCAG | 0.114
GUACGAGUUGAAUGGAUCGCAGCAGUUACCAUUGCUGCUGGGACAGCUGCAAUUGGUUAUCUAGCUUACAAAAGAUUUUAUGUUAAAGAUCAUCGAAAUAAAGCUAUGAUAAACCUUCAC | 0.161
AACAGACUUGUAAACUCUGGGAUCUACAAGGCAGCUUUCCCACUCCAUGAUUGCAAAUUCCGCCGUCAGUCAGAGGAUCCCAGCUGCCCUAAUGAACGGUACCUUCUGUACAGAGAAUGG | 0.0845
AGUGUUAAAUUUAACCCUGUUGAGACAUUUCUCUUGGGAAGUUGUGCUUCUGAUAGGAAUAUAGUACUGUAUGAUAUGCGGCAAGCUACUCCUUUGAAAAAGGUUAUCCUGGAAAUGAGG | 0.39
AAACCAACAAAUCCAGCAGCCCAGAAGGCUCUUACUACACCUACUCAUUAUAAACUGACACCCCGCCCUGCCACUAGAGUCCGGCCAAAGGCUUUACAAACAACAGGCACAGCCAAGUCA | 0.581
CCAUUUAAAGACCGAGUCACCUGGGCUGGGGACCUUGACAAGAAAGAUGCAUCAAUCAAUAUAGAAAAUAUUCAGGCUGUUCACAAUGGCACCUAUAUCUGCGAUGUCAAAAAUCCUCCU | 1.28

Sample 2
Target: CCND1, cyclin fold, Cln2 fusion (human)
Technique: yeast growth competition, sequencing
Medium: yeast
Notes: weak parent motif
Baseline: not given
Reading: higher = stronger binding
Parent: GMNC docking peptide (human); KNAKRNLSSEFAN; partner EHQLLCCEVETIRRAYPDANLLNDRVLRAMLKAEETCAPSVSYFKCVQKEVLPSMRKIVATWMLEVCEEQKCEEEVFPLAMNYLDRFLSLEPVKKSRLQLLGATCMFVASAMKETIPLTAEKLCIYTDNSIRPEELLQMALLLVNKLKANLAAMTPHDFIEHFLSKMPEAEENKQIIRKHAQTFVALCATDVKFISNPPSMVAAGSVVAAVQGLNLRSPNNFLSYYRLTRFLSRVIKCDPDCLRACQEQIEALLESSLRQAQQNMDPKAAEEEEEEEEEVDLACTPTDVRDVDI
Substitution | normalised enrichment score
KNAKDNLSSEFAN [R5D] | 0.0142
KNALRNLSSEFAN [K4L] | 0.242
KNAKRNLSSVFAN [E10V] | 0.363
KNAKRNESSEFAN [L7E] | 0.0188
KNAKRNLSSEPAN [F11P] | -0.288
KNAKRNLSSEEAN [F11E] | 0.0788

Sample 3
Target: Histone acetyltransferase KAT6A, both winged helices, GST fusion (KAT6A, Homo sapiens, UniProt Q92794, residues 1-181)
Technique: protein binding microarray
Form: double-stranded DNA, one strand shown
Medium: in vitro
Tested at: not given
Notes: 8-mer, flanks averaged, mean of 2 arrays, mostly near background
Baseline: not given
Reading: higher = stronger binding
Construct (chain): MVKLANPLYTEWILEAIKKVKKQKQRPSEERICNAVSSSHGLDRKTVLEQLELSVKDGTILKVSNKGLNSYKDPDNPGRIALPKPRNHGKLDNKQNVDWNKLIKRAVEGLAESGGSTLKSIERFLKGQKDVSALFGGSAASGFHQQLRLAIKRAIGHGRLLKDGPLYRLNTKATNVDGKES
Sequence | E-score
AACGCGGT | 0.311
CGCGGAAA | 0.354
AGCTCCAA | -0.231
GAATGATC | -0.00658
CGCTCATA | 0.063
GTCTCCCA | -0.138

Mixed results
Substance | target | test | system | setting | scale | measurement | result
PhoQ, residues 284 288 289 292 302 303 AGHLVA | PhoP, residues 12 14 15 18 19 LWHVM (Escherichia coli, UniProt P23836) | Sort-seq, refers to: YFP reporter | E. coli | PhoQ-PhoP variant library, together with: 10 µM Mg2+ | baseline: high Mg2+ state, higher = stronger signaling | fold induction | 3.71
